{"data": "Measurements from different studies", "note": "Numbered parts are unrelated; each lists some results of a single study. Positions count from the first letter of the parent shown."}
{"data": "Block 1", "target": "Phosphate system positive regulatory protein PHO4, full length, GST-tagged (PHO4, Saccharomyces cerevisiae, UniProt P07270, residues 1-312)", "technique": "competition protein-binding microarray", "molecule type": "double-stranded DNA, one strand shown", "matrix": "in vitro", "tested at": "2 µM", "notes": "whole 60-bp probe, lowest competitor level", "with": "Cbf1 competitor, 0.05 µM", "direction": "higher = stronger binding", "all sequences stand within": "… GTCTTGATTCGCTTGACGCTGCTG", "sequence of UniProt P07270 (whole entry, looked up)": "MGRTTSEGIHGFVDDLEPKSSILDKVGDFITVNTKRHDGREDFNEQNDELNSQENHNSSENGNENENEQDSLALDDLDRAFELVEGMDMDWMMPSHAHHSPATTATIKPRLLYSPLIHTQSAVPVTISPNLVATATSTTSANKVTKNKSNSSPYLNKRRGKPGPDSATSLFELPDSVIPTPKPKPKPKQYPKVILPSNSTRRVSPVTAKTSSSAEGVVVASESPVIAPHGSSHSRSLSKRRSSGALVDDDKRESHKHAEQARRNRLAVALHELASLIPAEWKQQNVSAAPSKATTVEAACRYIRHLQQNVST"}
{"Oligonucleotide": "CGCTTCAGGACAGTACACGTGATCCAGCATAAGATG", "fluorescence intensity [a.u.]": 14100}
{"Oligonucleotide": "CCATGGACAATTTCACACGTGAAAATTGGTTACCAT", "fluorescence intensity [a.u.]": 10800}
{"Oligonucleotide": "AAGAGCAAGTTGTTACACGTGTGAATCTGGCACATT", "fluorescence intensity [a.u.]": 14600}
{"Oligonucleotide": "CTTGGCACACTCTGTTGCGTGGTGAAAATAGAACCA", "fluorescence intensity [a.u.]": 7230}
{"Oligonucleotide": "CGTCCTAGCGATTGAACGGTGGGTGCCATGAGGAAG", "fluorescence intensity [a.u.]": 6550}
{"Oligonucleotide": "ATAAGCCAGAATCCACACGGGAACTTCGGACTTTGC", "fluorescence intensity [a.u.]": 5160}
{"Oligonucleotide": "AAATTACTAAGTTGTCCTGTGGGTGACGCCGTATGA", "fluorescence intensity [a.u.]": 4330}
{"Oligonucleotide": "TTGCGTTTACGCTCGCGCGTGGGACAACTAACGCAA", "fluorescence intensity [a.u.]": 9010}
{"data": "Block 2", "target": "Probable WRKY transcription factor 11, DNA-binding domain (WRKY11, Arabidopsis thaliana, UniProt Q9SV15, residues 228-325)", "technique": "DNA-protein interaction ELISA", "molecule type": "double-stranded DNA, one strand shown", "matrix": "in vitro, bacterial lysate", "tested at": "not given", "notes": "whole dsDNA probe, crude lysate protein", "reference": "highest signal in screen", "direction": "higher = stronger binding", "Residues (chain)": "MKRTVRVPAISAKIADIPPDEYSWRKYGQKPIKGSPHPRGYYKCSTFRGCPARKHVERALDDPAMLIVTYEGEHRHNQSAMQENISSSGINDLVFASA"}
{"Oligonucleotide": "AAAAAATGATGTTGGCGCATTTAAACAAAA", "relative absorbance": "12.7 % of maximum"}
{"Oligonucleotide": "AAAAAAACGCTCAAGTCTATCAGTAGAAAA", "relative absorbance": "18.4 % of maximum"}
{"Oligonucleotide": "AAAAAAAGTTTGACCTTGGCGTTCGTAAAA", "relative absorbance": "98 % of maximum"}
{"Oligonucleotide": "AAAAAAACGGGTTGTGAATGTGGAAGAAAA", "relative absorbance": "13.5 % of maximum"}
{"Oligonucleotide": "AAAAAAAAATGCTAGCGCGTACGTAAAAAA", "relative absorbance": "16.4 % of maximum"}
{"Oligonucleotide": "AAAAAAGGTTTAGCCCATGCCTGTGCAAAA", "relative absorbance": "16.1 % of maximum"}
{"Oligonucleotide": "AAAAAAGTACATGCGTAGATAATGTTAAAA", "relative absorbance": "14.4 % of maximum"}
{"Oligonucleotide": "AAAAAACGGTAAGTCGACAAAA", "relative absorbance": "15 % of maximum"}
{"data": "Block 3", "target": "Hepatocyte nuclear factor 3-alpha (Foxa1, Mus musculus, UniProt P35582, residues 1-468, full length assumed)", "technique": "EMSA with sequencing", "molecule type": "double-stranded DNA, one strand shown", "matrix": "in vitro", "tested at": "10 and 20 nM", "notes": "whole designed probe, mean of two concentrations, ends assumed", "reference": "negative control set to 0", "direction": "higher = stronger binding", "all sequences stand within": "GTGAGCGGTGCCCATTGATGGGGAAC … TTTCACTGGGATCGTGGGGAC", "Target sequence (chain)": "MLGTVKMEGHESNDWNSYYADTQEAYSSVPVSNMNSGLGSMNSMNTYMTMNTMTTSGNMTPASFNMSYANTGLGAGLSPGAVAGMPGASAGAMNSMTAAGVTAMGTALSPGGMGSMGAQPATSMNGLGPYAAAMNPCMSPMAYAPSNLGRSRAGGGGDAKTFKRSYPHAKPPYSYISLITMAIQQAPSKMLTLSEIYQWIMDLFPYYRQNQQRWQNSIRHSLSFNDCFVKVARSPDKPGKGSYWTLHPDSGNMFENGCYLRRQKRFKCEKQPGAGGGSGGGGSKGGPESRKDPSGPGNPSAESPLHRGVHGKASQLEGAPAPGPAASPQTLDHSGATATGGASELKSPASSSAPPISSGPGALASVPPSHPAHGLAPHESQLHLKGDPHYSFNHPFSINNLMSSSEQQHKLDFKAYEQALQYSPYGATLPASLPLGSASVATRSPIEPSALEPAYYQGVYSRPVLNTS"}
{"Oligonucleotide": "ATTGATATATAAAACAACATTCTTATAGTGTGTTTTATTTATAATTTAGTATTTACTAATACAAGACAAGGACTTAGTAGTTCTTAAGTCCTTGTTTACACTGTTCATATACATGGTAGTTTTATTTATTTAGCCCTATCTACTCTACTCTTTCCCCACCCACTTTCCCCTCCATCTTCAAATCCTAATTTCT", "normalised bound fraction [ratio]": 0.513}
{"Oligonucleotide": "AATTCACATAAGTTCATTTTAAATGACTTAGTCAGTGCCAGCACTTATACCCATTTTCTACTTATCGGTGACATGAGTTAAGACACCTGACAATGTAATCTGCAATATGATCTCATTTGTGTGGATGATTTAAAATTTTATGTAAAGTTGTGATTTTTCAAGCCATCCTCAGTTTAGGGATATCTCCTTGAGC", "normalised bound fraction [ratio]": -0.0733}
{"Oligonucleotide": "ATCTTCCCCCTCTTCCTTGCCCCACCAGCTCACCTTCCCGGGTTATTTGCACAAAGGAAAATAAATAAAGCCGGCATTCGTTAACCCTCTTCACGCGCATACTGCTGTTTGCTCTGGATCTAACATGGTCCTTTGGCGACGCCAGGCTCCGGGAGAGCAAAGCACCGTGTCAGGGCCATGATCCGGGCTCGCC", "normalised bound fraction [ratio]": 0.376}
{"Oligonucleotide": "TTTTTCATGTATAAATATATAATTTTATTTAATATTTAGATTTTATTCTTTTCTCTGAATTCATTATATACTACAAAAGTTATGGCATCTCAATGTAATCTCAGATGCAGAAGAAAAGAGTTCTAATACCTTTATTACCTAAGAAGATAAAATATCATAGATGTGTGGAATTAAAAGAAAATTATCAAAGTCC", "normalised bound fraction [ratio]": 0.15}
{"Oligonucleotide": "CACGCGGAGAGGCCACCTGCCCGGGCCAATCTGTACGCTCCGTGATCTTCGCCCGCTCCCCGGCCCCGCGCCCTGGTGTCCCTGCAGTCGCTGAGTAATCTGCGACTGGGAGCCATCTTGGGGCGGAGGACCGATCCCAAGCGAAGTAGTAGTGGCTGCAGCCCGGGTGCCCCCATTCGTAAAGGGGAGCCTC", "normalised bound fraction [ratio]": -0.0865}
{"Oligonucleotide": "TGTTCTTCTATGAGACTATTGTCATCTCGGTAATTAAGAATGATTTCCAGTTCTCTGGAACTTCTCGTCTGATCCAGTAGGTCCTTAGCAAATTGTTTGCACTGCCGTGACAGCTCTTCATACTCCGACTTGAATTCATTTTCCACCTTGCTCAGTTCCTGAAGTTCCCAACTTAACTGAAAGGCTGTGAGAA", "normalised bound fraction [ratio]": 0.11}
{"Oligonucleotide": "GCTTCTTAGCCCTGGTGCTATTTCTTGGCTTCCACACATTCTGTACAATTGCAGCCCTGACAGCTAATTTAGCTTCACTGTTGGTGAGTTTCTTGTTTGCTTTTGCTGCTGTCCAAATGATTCAAGGTGCTGAATGACGCCATCTGTATGTTGCTAGAGGCTGAGAGGGGGCTGGGAGGAAGCCTTAAGTCAA", "normalised bound fraction [ratio]": 0.365}
{"Oligonucleotide": "AGAGCAACTGACAATCTCACACATTGCTAATGGAATAGTGGGTTTGGTGACTTGGAAGTGGGATGTTGAGGGCTTCTTGAAGGTTTTATTCAAGATTACTTTAATTGCCAACATTAGTTCTTACATAGGTATTTTCACAAAATAATGTATTGAGCTGTATACTTACTATTAGAGTACTTTTTCTTAATGCATT", "normalised bound fraction [ratio]": -0.0287}
{"data": "Other studies, line by line", "starting sequence": "viral docking peptide; KKVKRRLFETREL"}
{"Substitution": "R5A", "target": "CCND3, cyclin fold, Cln2 fusion (human)", "assay": "yeast growth competition, sequencing", "system": "yeast", "conditions": "weak parent motif", "how to read": "reference: not given, higher = stronger binding", "endpoint": "normalised enrichment score", "value": 0.144}
{"note": "For quick reference, copied from above (block 2):"}
{"Oligonucleotide": "AAAAAAGTACATGCGTAGATAATGTTAAAA", "relative absorbance": "14.4 % of maximum"}
{"Oligonucleotide": "AAAAAAAGTTTGACCTTGGCGTTCGTAAAA", "relative absorbance": "98 % of maximum"}
{"Oligonucleotide": "AAAAAATGATGTTGGCGCATTTAAACAAAA", "relative absorbance": "12.7 % of maximum"}
